Measurements collected from several papers.
Several values in a cell are separate wells, animals, samples, runs or records. ± marks the error that the study gave.
U2AF2: U2AF2 148-342 (Homo sapiens, UniProt P26368)
Chain of UniProt P26368 (whole entry, looked up): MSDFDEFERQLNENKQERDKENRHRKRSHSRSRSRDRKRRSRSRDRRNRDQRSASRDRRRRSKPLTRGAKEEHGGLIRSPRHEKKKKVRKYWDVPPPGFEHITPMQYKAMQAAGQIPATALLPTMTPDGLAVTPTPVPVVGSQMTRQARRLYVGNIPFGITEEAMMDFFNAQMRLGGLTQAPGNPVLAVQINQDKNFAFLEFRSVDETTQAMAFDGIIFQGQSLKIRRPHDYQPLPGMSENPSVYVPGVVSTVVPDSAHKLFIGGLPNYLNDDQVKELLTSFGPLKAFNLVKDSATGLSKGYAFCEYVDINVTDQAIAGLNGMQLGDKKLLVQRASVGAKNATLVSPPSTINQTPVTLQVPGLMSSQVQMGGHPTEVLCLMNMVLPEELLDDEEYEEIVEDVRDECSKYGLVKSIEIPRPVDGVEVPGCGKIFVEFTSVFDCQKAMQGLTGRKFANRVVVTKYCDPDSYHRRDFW
B1: human annexin A1; sequence looked up; chain AMVSEFLKQAWFIENEEQEYVQTVKSSKGGPGSAVSPYPTFNPSSDVAALHKAIMVKGVDEATIIDILTKRNNAQRQQIKAAYLQETGKPLDETLKKALTGHLEEVVLALLKTPAQFDADELRAAMKGLGTDEDTLIEILASRTNKEIRDINRVYREELKRDLAKDITSDTSGDFRNALLSLAKGDRSEDFGVNEDLADSDARALYEAGERRKGTDVNVFNTILTTRSYPQLRRVFQKYTKYSKHDMNKVLDLELKGDIEKCLTAIVKCATSKPAFFAEKLHQAMKGVGTRHKALIRIMVSRSEIDMNDIKAFYQKMYGISLCQAILDETKGDYEKILVALCGGN
B2: human ADP/ATP translocase 1; sequence looked up; chain GDHAWSFLKDFLAGGVAAAVSKTAVAPIERVKLLLQVQHASKQISAEKQYKGIIDCVVRIPKEQGFLSFWRGNLANVIRYFPTQALNFAFKDKYKQLFLGGVDRHKQFWRYFAGNLASGGAAGATSLCFVYPLDFARTRLAADVGKGAAQREFHGLGDCIIKIFKSDGLRGLYQGFNVSVQGIIIYRAAYFGVYDTAKGMLPDPKNVHIFVSWMIAQSVTAVAGLVSYPFDTVRRRMMMQSGRKGADIMYTGTVDCWRKIAKDEGAKAFFKGAWSNVLRGMGGAFVLVLYDEIKKYV
B3: human hnRNP Q; sequence looked up; chain ATEHVNGNGTEEPMDTTSAVIHSENFQTLLDAGLPQKVAEKLDEIYVAGLVAHSDLDERAIEALKEFNEDGALAVLQQFKDSDLSHVQNKSAFLCGVMKTYRQREKQGTKVADSSKGPDEAKIKALLERTGYTLDVTTGQRKYGGPPPDSVYSGQQPSVGTEIFVGKIPRDLFEDELVPLFEKAGPIWDLRLMMDPLTGLNRGYAFVTFCTKEAAQEAVKLYNNHEIRSGKHIGVCISVANNRLFVGSIPKSKTKEQILEEFSKVTEGLTDVILYHQPDDKKKNRGFCFLEYEDHKTAAQARRRLMSGKVKVWGNVGTVEWADPIEDPDPEVMAKVKVLFVRNLANTVTEEILEKAFSQFGKLERVKKLKDYAFIHFDERDGAVKAMEEMNGKDLEGENIEIVFAKPPDQKRKERKAQRQAAKNQMYDDYYYYGPPHMPPPTRGRGRGGRGGYGYPPDYYGYEDYYDYYGYDYHNYRGGYEDPYYGYEDFQVGARGRGGRGARGAAPSRGRGAAPPRGRAGYSQRGGPGSARGVRGARGGAQQQRGRGVRGARGGRGGNVGGKRKADGYNQPDSKRRQTNNQNWGSQPIAQQPLQGGDHSGNYGYKSENQEFYQDTFGQQWK
Chain of UniProt P21980 (whole entry, looked up): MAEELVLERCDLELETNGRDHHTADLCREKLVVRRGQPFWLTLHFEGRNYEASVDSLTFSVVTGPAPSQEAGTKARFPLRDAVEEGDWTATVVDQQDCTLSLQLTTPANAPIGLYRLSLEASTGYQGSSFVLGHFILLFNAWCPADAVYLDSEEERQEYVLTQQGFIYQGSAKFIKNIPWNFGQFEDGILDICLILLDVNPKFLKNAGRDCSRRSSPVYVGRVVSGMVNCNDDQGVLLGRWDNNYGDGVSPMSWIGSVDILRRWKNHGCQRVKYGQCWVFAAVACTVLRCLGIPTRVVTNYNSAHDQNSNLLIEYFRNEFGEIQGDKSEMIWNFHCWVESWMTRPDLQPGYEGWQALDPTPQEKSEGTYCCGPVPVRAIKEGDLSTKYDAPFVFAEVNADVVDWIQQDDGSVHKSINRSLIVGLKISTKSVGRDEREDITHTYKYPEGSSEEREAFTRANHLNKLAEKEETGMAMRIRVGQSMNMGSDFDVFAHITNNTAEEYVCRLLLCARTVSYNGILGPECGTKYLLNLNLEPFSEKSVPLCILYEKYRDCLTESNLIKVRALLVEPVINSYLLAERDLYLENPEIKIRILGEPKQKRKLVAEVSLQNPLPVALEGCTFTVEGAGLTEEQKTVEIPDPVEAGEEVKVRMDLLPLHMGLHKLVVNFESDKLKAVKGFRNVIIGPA

Molecule = GSGAGQITKV; tested on = construct, MBP fusion, human SCRIB, PDZ 3-4; test = automated holdup; system = peptide, crude extract; setting = concentration not given, uncorrected, unit not given; how to read = relative to: biotin control resin, higher = stronger binding; measurement = binding intensity; value = 0.0678
Molecule = B1 (human annexin A1); tested on = CYB5R4 knockout human cells; test = PP4 interaction, 3xFLAG-PP4C IP-MS; setting = concentration not given; how to read = relative to: CYB5R4 KO over parental; measurement = log2 fold change; value = 1.57
Molecule = epoetin alfa; tested on = UT7/EPO; test = RT-qPCR, refers to: PTGS2; setting = concentration not given, 90 min, normalized to HPRT1; how to read = relative to: vehicle; measurement = mRNA level; value = 4.5 fold
Molecule = difelikefalin; system = Japanese haemodialysis patients with pruritus; setting = intravenous, 0.25 µg/kg, 8 weeks; measurement = PGIC no change; value = 11.5%
Molecule = cotadutide; test = metabolomics, refers to: hepatic histidine; system = ob/ob mice on AMLN diet, NASH model, liver; setting = dose not given; measurement = metabolite level; value = 1.03 ± 0.03 scaled intensity
Molecule = human endoplasmin; tested on = PP6C (human); test = co-immunoprecipitation, IP-MS; system = CYB5R4 knockout cells; setting = concentration not given; how to read = relative to: CYB5R4 knockout over parental; measurement = log2 fold change; value = -0.31
Molecule = Polymyxin B; tested on = Staphylococcus aureus; test = DiSC3(5) fluorescence; setting = concentration not given, 48 min; how to read = higher = more depolarisation; measurement = membrane depolarisation; value = 533 a.u. and 582 a.u. and 737 a.u.
Molecule = Peginesatide; tested on = UT7/EPO; test = tyrosine phosphorylation, LC-MS/MS phosphoproteomics, GluC, refers to: PLCG1 tyrosine 783; setting = 10 nM, 15 min, with: 10 U/mL EPO; how to read = relative to: vehicle; measurement = phosphorylation level; value = 31 fold
Molecule = B2 (human ADP/ATP translocase 1); tested on = PP6C (human); test = co-immunoprecipitation, IP-MS; system = CYB5R4 knockout cells; setting = concentration not given; how to read = relative to: CYB5R4 knockout over parental; measurement = log2 fold change; value = -0.12
Molecule = UGGCUCUUC (ssRNA); tested on = U2AF2; test = sequencing of bound RNA; system = RNA; setting = motif only; measurement = Kd; value = 8.66 µM
Molecule = GGGAGCAGGAGAGAGGUCAGAUGUGUAGGGAAUGACCGGGUUCCUGGUGCCCGCCUAUGCGUGCUAGUGUGA (ssRNA; 2'-fluoro pyrimidines); tested on = TGM2 2-687 (Homo sapiens, UniProt P21980); test = SPR; system = RNA; setting = with: MgCl2 5 mM; how to read = higher = more binding; measurement = relative binding; value = 277 RU
Molecule = colistin; tested on = Klebsiella pneumoniae; test = broth microdilution; system = clinical isolate RKI-No_328/16; measurement = MIC; value = 64 µg/mL
Molecule = human HADHA; tested on = PP6C (human); test = co-immunoprecipitation, IP-MS; system = CYB5R4 knockout cells; setting = concentration not given; how to read = relative to: CYB5R4 knockout over parental; measurement = log2 fold change; value = 0.02
Molecule = QSARYRDTEL; tested on = construct, MBP fusion, human SCRIB, PDZ 3-4; test = automated holdup; system = peptide, crude extract; setting = concentration not given, corrected by standard peak, unit not given; how to read = relative to: biotin control resin, higher = stronger binding; measurement = binding intensity; value = 0.402
Molecule = Talin-1 (human); tested on = PP6C (human); test = co-immunoprecipitation, IP-MS; system = CYB5R4 knockout cells; setting = concentration not given; how to read = relative to: CYB5R4 knockout over parental; measurement = log2 fold change; value = -0.97
Molecule = milbemycin oxime; tested on = Saccharomyces cerevisiae; test = cell growth; system = Pdr5 deleted, Cdr1 overexpressed; setting = 2^-9.966 µg/mL, with: fluconazole 1 µg/mL; measurement = OD600; value = 1.03 and 1.01
Molecule = semaglutide; system = DIO male Wistar rats; setting = dose not given, 2 weeks; measurement = body weight; value = 615 ± 23 g
Molecule = QDEKVKESYV; tested on = construct, MBP fusion, human SCRIB, PDZ 3-4; test = automated holdup; system = peptide, crude extract; setting = concentration not given, uncorrected, unit not given; how to read = relative to: biotin control resin, higher = stronger binding; measurement = binding intensity; value = 0.545
Molecule = GCAGAAUUU (ssRNA); tested on = U2AF2; test = sequencing of bound RNA; system = RNA; setting = motif only; measurement = Kd; value = 2.55 µM
Molecule = GGWVEKETYY; tested on = construct, MBP fusion, human SCRIB, PDZ 3-4; test = automated holdup; system = peptide, crude extract; setting = concentration not given, uncorrected, unit not given; how to read = relative to: biotin control resin, higher = stronger binding; measurement = binding intensity; value = 0.0759
Molecule = B3 (human hnRNP Q); tested on = PP6C (human); test = co-immunoprecipitation, IP-MS; system = CYB5R4 knockout cells; setting = concentration not given; how to read = relative to: CYB5R4 knockout over parental; measurement = log2 fold change; value = -0.54
